Experimental data pooled from the literature.
Each numbered part is a random draw from the data of one study; scales do not carry over between parts.

Sample 1 — method: protein binding microarray; molecule type: double-stranded DNA, one strand shown; matrix: in vitro; tested at: not given; reference: not given; reading: higher = stronger binding
Target: Histone acetyltransferase KAT6A, both winged helices, GST fusion (KAT6A, Homo sapiens, UniProt Q92794, residues 1-181)
Notes: 8-mer, flanks averaged, mean of 2 arrays, mostly near background
Construct (chain): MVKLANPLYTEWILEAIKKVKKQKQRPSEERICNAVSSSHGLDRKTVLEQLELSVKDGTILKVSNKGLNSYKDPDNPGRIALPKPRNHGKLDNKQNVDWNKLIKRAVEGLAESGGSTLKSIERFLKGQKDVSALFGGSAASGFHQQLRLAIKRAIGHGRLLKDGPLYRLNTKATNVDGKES
Oligonucleotide | E-score
AACCGCAC | 0.0259
TCGTAAAA | 0.0533
ATTGCTCA | -0.0628
GAGGTGGC | -0.24
GACGACGA | -0.0802
CGGAATCA | 0.214
ACCATGGT | -0.0809
CCATTCCA | -0.0851

Sample 2 — method: RNA Bind-n-Seq; molecule type: RNA; matrix: in vitro; tested at: 200 nM; notes: whole 134-nt RNA, ends assumed; added: 150 mM KCl; reference: input library; reading: higher = stronger binding
Target: Fragile X messenger ribonucleoprotein 1, C-terminal low-complexity region (Fmr1, Mus musculus, UniProt P35922)
All sequences stand within: GGGAGUUCUACAGUCCGACGAUC … UGGAAUUCUCGGGUGUCAAGG
Oligonucleotide | log2 enrichment
AGUCCUGUGCUACACAUCGUAUGUACCGAAUCGGGAAAAGGGGAAAAGGGAAAAGGGGAAAGUAUUAUGUUACGCCGUUCGGAUCUGCAC | 0.307
AGUCCUGUGCUACACAUCGUAUGUACCGAAUCGGGAAAAAAAGGGAGGGAAAAAGGGAAAGUAUUAUGUUACGCCGUUCGGAUCUGCACU | 0.139
UCCUCAAGUCCUGUGCUACACAUCGUAUGUACCGAAUCGGUGGGUGGGUGGGAAAGUAUUAUGUUACGCCGUUCGGAUCUGCACUUCCAG | 1.37
UGGCCCUGGUGGCAUGCGGGCAGGAAGAGGUGGCCUCAUGGAUCGUGGUGGUCCCGGUGGAAUGUUCAGAGGUGGCCGUGGUGGAGACAG | -0.149
GUCCUGUGCUACACAUCGUAUGUACCGAAUCGGGGUUUUGGGUUUUGGGGUUUUGGGGAAAGUAUUAUGUUACGCCGUUCGGAUCUGCAC | 0.506

Sample 3 — method: RNAcompete; molecule type: RNA; matrix: in vitro; tested at: 20 nM; notes: 7-mer, probes averaged, single round; reference: mean of 7-mers; reading: higher = stronger binding
Target: PABPC1L2, full length, GST fusion (mouse, UniProt A0ABA7IW68)
Construct (chain): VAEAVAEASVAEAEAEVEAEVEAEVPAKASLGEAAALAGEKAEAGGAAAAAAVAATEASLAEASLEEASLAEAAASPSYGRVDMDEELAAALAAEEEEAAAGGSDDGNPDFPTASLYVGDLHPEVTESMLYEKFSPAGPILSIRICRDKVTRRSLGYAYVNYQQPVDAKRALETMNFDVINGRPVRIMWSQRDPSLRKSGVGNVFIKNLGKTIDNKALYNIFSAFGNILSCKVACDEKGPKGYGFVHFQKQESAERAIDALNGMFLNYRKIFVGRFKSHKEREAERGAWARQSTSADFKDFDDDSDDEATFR
Oligonucleotide | 7-mer Z-score
CUGGAGA | 0.0189
UGUGGAG | 0.207
UAAAUAC | 1.62
GGGUUGC | -0.00108
AGGCCUG | -0.0319
UGGACGA | -0.103
UUCCUUA | -0.393

Single results of other studies
Molecule | target | test | system | setting | scale | endpoint | result
PhoQ, residues 284 288 289 292 302 303 SLSVQF | PhoP, residues 12 14 15 18 19 LHHSG (Escherichia coli, UniProt P23836) | Sort-seq, refers to: YFP reporter | E. coli | PhoQ-PhoP variant library, added: 10 µM Mg2+ | reference: high Mg2+ state, higher = stronger signaling | fold induction | 3.96
